Measured values from different studies.
Parts stem from different laboratories: compare values within a part only. Changes are numbered by the printed parent chain.

Block 1 — target: CCNA2, cyclin fold, Cln2 fusion (human); technique: yeast growth competition, sequencing; medium: yeast; notes: strong parent motif; reference: not given; direction: higher = stronger binding
Starting sequence: CCP110 docking peptide (human); EKVKRRLDLDIDG
Variant	normalised enrichment score
EKAKRRLDLDIDG [V3A]	3.11
EKVKRRADLDIDG [L7A]	-0.46
EKVKARADLDIDG [R5A L7A]	-0.189
EAVKRRLDLDIDG [K2A]	2.7
EKVKRRLDLDIDA [G13A]	4.46
EKVKARLDLDIDG [R5A]	0.312
EKVKRRLDFDIDG [L9F]	5.84
EKVKKRLDFDIDG [R5K L9F]	6.14
EKVKRRLDADIDG [L9A]	0.31
EKVARRLDLDIDG [K4A]	3.03

Block 2 — technique: protein-binding microarray; form: double-stranded DNA, one strand shown; medium: in vitro; tested at: 2200 nM top; notes: 60-bp whole probe; added: salmon DNA 0.4 mg/ml; reference: random background probes; direction: higher = stronger binding; constant ends, left off below: GCCTAGCAC … GTCTTGATTCGCTTGACGCTGCTG
Target: Interferon regulatory factor 7, full length, phosphomimetic (IRF7, Homo sapiens, UniProt Q92985, residues 1-503, S471D/S472D/S475D/S476D/S477D/S483D/S484D/S487D)
Residues (chain): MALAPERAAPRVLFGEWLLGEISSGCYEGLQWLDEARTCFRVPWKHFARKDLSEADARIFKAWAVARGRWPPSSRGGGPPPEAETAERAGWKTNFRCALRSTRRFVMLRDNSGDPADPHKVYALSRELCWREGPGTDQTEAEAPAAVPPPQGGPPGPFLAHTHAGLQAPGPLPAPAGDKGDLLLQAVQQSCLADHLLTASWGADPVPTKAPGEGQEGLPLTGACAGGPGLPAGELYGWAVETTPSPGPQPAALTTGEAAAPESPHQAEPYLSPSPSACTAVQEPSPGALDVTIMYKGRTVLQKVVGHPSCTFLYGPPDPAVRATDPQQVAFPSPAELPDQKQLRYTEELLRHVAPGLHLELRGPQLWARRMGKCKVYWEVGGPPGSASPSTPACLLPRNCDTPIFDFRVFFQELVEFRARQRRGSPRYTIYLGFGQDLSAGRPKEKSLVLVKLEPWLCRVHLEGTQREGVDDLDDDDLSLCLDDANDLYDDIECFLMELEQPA
Sequence	fitted relative affinity [z-score]
TTAGGTCTGCTTTTCCTTTAGTGCTAG	2.02
TTAGGTTTAGGGACTGGGTTAGTGCTA	-0.393
AACGATCTCAGACTGGAGACGTGCTAG	0.0729
CCTCATCTTCCTCTGCCACAGTGCTAG	2.06
TTCAGTTTTCCTCTGTCATTGTGCTAG	3.03
CTCTACATGTGTTTAAGAATGTGCTAG	0.848
TCACTCCTCCAGGTTCTCACTGTGCTA	1.84
GACGATATCAGACTGGAGTCGTGCTAG	0.329
TCATTTTCATTTTATGACACTGTGCTA	6.68
TCATATATACACTTATGACTGTGCTAG	0.866
TTAGGTGTCCTTTCCCTTTAGTGCTAG	2.4
GACGAACTGGTGTATCGAGACGTGCTA	0.0922
TCAGAGCTCTGTCTGGGACTGTGCTAG	-0.42
AACGAACTGGGGACTGGAGACGTGCTA	-0.331
TTAGACTTCGGGTATCGATTAGTGCTA	0.0697
GCAGTTGTCGTTCAAGGCTGGTGCTAG	0.0598
TTAGCTCTCCTACTGCTTTAGTGCTAG	1.12
TTAGGTATTCTTCTCCTTTAGTGCTAG	0.948
GACGGACTGGAATATCGGGACGTGCTA	-0.578
TTAAATCTCAGACTGGATTAGTGCTAG	-0.556
TTAGATCTCAGTATCAATTAGTGCTAG	0.000868
GACGATTTCGGTCTCGGGACGTGCTAG	3.22
GACGGACTGGACTTTCGCGACGTGCTA	0.593
TACGAACTGAGTTTCGAGACGTGCTAG	2.45
GACGAGATCAGTTTCGAGACGTGCTAG	3.28

Block 3 — technique: protein binding microarray; form: double-stranded DNA, one strand shown; medium: in vitro; tested at: not given; reference: not given; direction: higher = stronger binding
Target: Histone acetyltransferase KAT6A, both winged helices, GST fusion (KAT6A, Homo sapiens, UniProt Q92794, residues 1-181)
Notes: 8-mer, flanks averaged, mean of 2 arrays, mostly near background
Construct (chain): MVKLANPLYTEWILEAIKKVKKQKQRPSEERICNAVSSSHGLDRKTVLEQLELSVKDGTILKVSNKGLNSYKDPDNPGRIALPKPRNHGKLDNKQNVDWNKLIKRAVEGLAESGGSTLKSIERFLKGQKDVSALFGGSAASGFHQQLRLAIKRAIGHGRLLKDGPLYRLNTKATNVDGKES
Sequence	E-score
GTTCGTAA	-0.0927
CCTCACTC	-0.205
ATCGTGCC	0.0821
AAGTTTGG	-0.0257
AGTCACAT	-0.0434
ACACCGCT	0.142
CATACTAG	-0.175
TCACACCA	-0.117
ATCATAAG	-0.0768
GAGACACC	-0.149
AGCTCTCC	-0.168
AAACTGTG	-0.194
AGTTTGCC	-0.0241
TATTGCGA	0.026
ATGACCCG	0.125
CTTCCAAG	-0.182
AGTATCCA	-0.17
CAATCAGC	-0.0638
ACCGAAGC	0.0466
AATCGTAT	-0.0629
ATATTGCA	-0.14

Block 4 — technique: RNA Bind-n-Seq; form: RNA; medium: in vitro; tested at: 365 nM; reference: no-protein control; direction: higher = stronger binding
Target: RNA binding protein fox-1 homolog 2, RRM domain, GST-SBP tag (RBFOX2, Homo sapiens, UniProt O43251-10, residues 100-194)
Notes: natural RNA segment, single round, ends assumed
Constant ends, left off below: GGGAGUUCUACAGUCCGACGAUC … UGGAAUUCUCGGGUGCCAA
Target sequence (chain): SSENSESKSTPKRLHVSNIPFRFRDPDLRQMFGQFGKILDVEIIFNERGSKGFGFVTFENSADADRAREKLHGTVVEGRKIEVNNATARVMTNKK
Sequence	RBNS enrichment (R)
UUUGGGAAGGUGGGUGAGGCUGGGCAGGGCCUGGCGGAGGUGGAGUGGCCACUGGCACUUGCCUGCUGCUUGGAGUGCCCCAAGGAGGUGGCUGUUAACCACCCGCCCCG	1.09
UAACUACAGAUGACUUUUUAAUAUUGUAAAAUAUUUUCUGCUUUUUGACUUGCAUCUGAGAGUUUCUUGUUUCAGUAAAAAAAGAAAAGACAAAAAAAUCAGCUUUGGAA	1.17
GUCUUGUCUCCAUUUGGAUAAAAGGAACCAACCAACAAACAAUGCCAUCACUGGAAUUUCCCACCGCUUUGUGAGCCGUGUCGUAUGACCUAGUAAACUUUGUACCAAUU	0.64
UAGGUAUGAAUAAGAUGACUAAGAAUGUAAUGGGGAAGAACUGCCCUGCCUGCCCAUCUCAGAGCCAUAAGGUCAUCUUUGCUAGAGCUAUUUUUACCUAUGUAUUUAUC	1.63
UGUAAGCACAGAUGAUGAUCUAGCUUGCUUCUGUGACAAAUGUUGACCUUUGAGGUCUAAACAAAUAAUACCCCCGUCGGAAUGGUAACCGAGCCAGCAGCUGAAGUCUC	0.279
UCAUCGUUGUUGUUGUGCUGACGUCUGGUCAUGUAUUAUUAGUGUGUCUCGUUCUCCACGGUGCUGGAGACCUCAUUACUUUGGAAAACUCACUGUUCCCCAGCACAGCA	0.969
AGAAUUAAAGAUACUACAUAGGGGCCCUUGGGUAAGCAAAUCCAUUUUUCCCAGAGGCUAUCUUGAUUCUUUGGAAUGUUUAAAGUGUGCCUUGCCAGAGAGCUUACGAU	0.499
GCAGCGCGGCUGUGCUGUGCUGGGGAGGCAGCCGUUCCUUCGGGGGUCCUUGGGCCUGCAGUCCCCUCAUACUCACCCUUCACCCAACAUAUUUUCCGGUGCUGAUAUGU	0.224
GGGUUCGAUUCCUUUGUGUUUAGAGAGACCAGGUUCAGACAAUGGUAUAUAUUUUUGUUAUCAGGUGCAUGUCUGUCUGAUUUCCUUUUCUUCUCGUUGGGACUAUGUUU	19.8
CAGUCAGGUGGGCGGUGUGUCUUUCCAGAAGGUCACGUGGAAAUGUCUCGGGACUUGGGUCCCGGAGUGCCCGUGAAGCGUGUUUUUGCUCCUGAGGUGCAUUUUCUCAU	0.35
UUGGCAUGAAAUUUUCCAAGCAAACCUCAUUAAACAUCUGUUGUUUGUUAAAGAUGUUCCACUGAAAGCAACGCAUGUUUCAAAGGCACGUCUUUCCGUUCGUUGGUUUU	12
CCUUCCGGGCGCUCCUGGACCCUGGGGCAAACCUGUGACCCUUUUCUACUGGAAUAGAAAUGAGUUUUAUCAUCUUUGAAAAAUAAUUCACUCUUGAAGUAAUAAACGUU	0.405

Block 5 — technique: RNA Bind-n-Seq; form: RNA; medium: in vitro; tested at: 200 nM; notes: whole 134-nt RNA, ends assumed; added: 150 mM LiCl; reference: input library; direction: higher = stronger binding; each molecule: 7-deaza-guanosine replaces G
Target: Fragile X messenger ribonucleoprotein 1, C-terminal low-complexity region (Fmr1, Mus musculus, UniProt P35922)
Constant ends, left off below: GGGAGUUCUACAGUCCGACGAUC … UGGAAUUCUCGGGUGUCAAGG
Sequence	log2 enrichment
UGGCCCUGGUGGCAUGCGGGGAGGAAGAGGUGGCCUCAUGGAUCGUGGUGAUCCCGGUGGAAUGUUCAGAGGUGGCCGUGGUGGAGACAG	-0.262
UCCUGUGCUACACAUCGUAUGUACCGAAUCGGGGAGGGGUUUUUGGGGAAAAAAAGGGGAAAGUAUUAUGUUACGCCGUUCGGAUCUGCA	-0.605
GUCCUGUGCUACACAUCGUAUGUACCGAAUCAAAUUUUUUUAAAUUUUUAAAUUUAAAAAAGUAUUAUGUUACGCCGUUCGGAUCUGCAC	-3.41
GCAGGAAGUAAAAACAAAUGGAAAUGCUUCGGAUAGUGGCAGGGGAAAGGGUUGCUAAGGAAAGGGUGGGAUGGGAGUGGGUAAAGAGUU	1.67
UGGCCCUGGUGGCAUGCGGGGAGGAAGAGGUGGCCUCAUGGAUCGUGGUGGUCCCGGUGGACUGUUCAGAGGUGGCCGUGGUGGAGACAG	0.735
UGGGAGGUGGAUUUUGUUUAUUUUUUUAGCUCAUUUCCAGGGGUGGGAAUUUUUUUUUAAUAUAUGUCAUGAAUAAAGUUGUUUUUGAAA	0.182
AGUCCUGUGCUACACAUCGUAUGUACCGAAUCGGGGUUUGGGGAGGGGUUUUUGGGGAAAGUAUUAUGUUACGCCGUUCGGAUCUGCACU	-0.552
UUGAUGCCCCAGAUGUGGAUGUUCAUGGCCCAGACUGGCACCUGAAGAUGCCUAAGAUGAAAAUGCCCAAGUUCAGCAUGCCUGGCUUCA	-1.42
UCAAGUCCUGUGCUACACAUCGUAUGUACCGAAUCGGGCCCGGCCCGGGCCCGGGAAAGUAUUAUGUUACGCCGUUCGGAUCUGCACUUC	-1.75
ACCAUGCAGGUGGGCAUCUUUGGGAAGUGGGGCAAGGGGGGGAUAGGGAGGGGGGUAACACUUUGGGAACAAAUGGUCCCAGGUCGUUUC	1.47
CUGUGCUACACAUCGUAUGUACCGAAUCGGGUUUUUUUGGGUUUUUUUGGGAAAAAAAGGGAAAGUAUUAUGUUACGCCGUUCGGAUCUG	-0.901
